Measured values gathered from unrelated publications.
Protocols differ between the studies behind these lines. ± gives the spread as reported.
PRMT5: Protein arginine N-methyltransferase 5 (PRMT5, Homo sapiens, UniProt O14744)

`O=S(=O)([O-])[O-].[Mn+2]` has a Hill coefficient of 0.6 (alternative ancestral DyP peroxidase; peroxidase activity, substrate).
`CC1(C)C(/C=C/C=C2/N(CCCc3ccccc3)c3ccc4ccccc4c3C2(C)C)=[N+](CCCc2ccccc2)c2ccc3ccccc3c21.[Br-]` gave a Hill coefficient of 15.4 (PRMT5; inhibitor, scintillation proximity; with: biotinylated histone H4 peptide substrate).
The Hill coefficient of `O=C1Nc2c(ccc(Cl)c2Cl)C1=NO` is reported as 1.2 (KCNN4/CALM1 (Homo sapiens, UniProt O15554+P0DP23, N201A); ion current, activator, whole-cell patch clamp; N201A mutant).
`COc1cc(CNC(=O)CCCC/C=C/C(C)C)ccc1O` gave a Hill coefficient of 1.1 (TRPV1 (Homo sapiens, UniProt Q8NER1, G492W); agonist, outside-out patch clamp; G492W mutant).
The Hill coefficient of `[Cl-].[Cl-].[Zn+2]` is reported as 0.7 (HVCN1 (Homo sapiens, UniProt Q96D96, E119H); whole-cell voltage clamp; 100 mV, open probability 0.55).
With `Nc1ncnc2c1ncn2[C@@H]1O[C@H](COP(=O)(O)OP(=O)(O)OP(=O)(O)O)[C@@H](O)[C@H]1O` the Hill coefficient was 1.3 ± 0.3 (P2X purinoceptor 2 (P2RX2, Homo sapiens, UniProt Q9UBL9); channel activation, agonist; transfected HEK293 cells; divalent-free solution, with: 10 mM EDTA).
With `COc1cccc(OC)c1OCCNCC1COc2ccccc2O1` (centres unmarked) the Hill coefficient was 1.7 (ADRA1A (Homo sapiens, UniProt P35348); binding, antagonist, radioligand binding).
With `CCCCN1/C(=C/C=C(Br)/C=C/C2=[N+](CCCC)c3ccc(Br)cc3C2(C)C)C(C)(C)c2cc(Br)ccc21.[I-]` the Hill coefficient was 1.39 (PRMT5; inhibitor, scintillation proximity; with: biotinylated histone H4 peptide substrate).
With `COc1cc(C(=O)NS(=O)(=O)c2ccccc2C)ccc1Cc1cn(C)c2ccc(NC(=O)OC3CCCC3)cc12` the Hill coefficient was 1.01 (LRRC8A/LRRC8C (Homo sapiens, UniProt Q8IWT6+Q8TDW0, L134K/L136K); whole-cell patch clamp; HCT116 LRRC8-/- expressing heteromers; -100 mV).
`CC1(C)C(/C=C/C=C2/N(CCCc3ccccc3)c3ccc(Cl)cc3C2(C)C)=[N+](CCCc2ccccc2)c2ccc(Cl)cc21.[Br-]` has a Hill coefficient of 15 (PRMT5; inhibitor, scintillation proximity; with: biotinylated histone H4 peptide substrate).
`OO` has a Hill coefficient of 1.8 (alternative ancestral DyP peroxidase; peroxidase activity, substrate).

Some of these lines once more:
The Hill coefficient of `[Cl-].[Cl-].[Zn+2]` is reported as 0.7 (HVCN1 (Homo sapiens, UniProt Q96D96, E119H); whole-cell voltage clamp; 100 mV, open probability 0.55).
